Measured values gathered from unrelated publications.
Each line is one published result; not all experiments were run side by side. Values joined by “and” are separate records of one study, mostly repeats; a detail may differ. Numbers after ± are the reported error.
TOP2A: DNA topoisomerase 2-alpha (TOP2A, Homo sapiens, UniProt P11388)
PREP: Prolyl endopeptidase (PREP, Homo sapiens, UniProt P48147)
Ubiquitin carboxyl-terminal hydrolase 39 ZnF-UBD domain: Ubiquitin carboxyl-terminal hydrolase 39, ZnF-UBD domain (Homo sapiens, UniProt Q53GS9)

With `COc1cc(C(=O)NS(=O)(=O)c2ccccc2C)ccc1Cc1cn(C)c2ccc(NC(=O)OC3CCCC3)cc12` the Hill coefficient was 1.78 (LRRC8A/LRRC8C (Homo sapiens, UniProt Q8IWT6+Q8TDW0, Y124F/Y126F); whole-cell patch clamp; HCT116 LRRC8-/- transfected; at -100 mV).
`O=S(=O)(O)O` gave a reaction velocity of 0.113 µM/s and 0.101 µM/s and 0.0883 µM/s (GUK1 (Homo sapiens, UniProt Q16774); enzyme activity, NADH-coupled; 10 mM, added: ATP 2000 µM).
`CCCCc1cn2c(n1)c(N)nc1ccccc12` — result for EC50: “inactive” (TLR7 (Homo sapiens, UniProt Q9NYK1); reporter gene, agonist, NF-κB reporter; HEK-Blue TLR7).
`COc1cccc2c(-c3ccc(C)cc3)cc(C(=O)Nc3ccc(C(=O)O)cc3)nc12`: IC50 “inactive” (RARG (Homo sapiens, UniProt P13631); reporter gene, antagonist; up to 3300 nM, added: ATRA 8 nM (EC80)).
For `O=c1nc(SCc2cc(F)cc(C(F)(F)F)c2)nc(SCc2ccc3sccc3c2)[nH]1`, the relaxed DNA was 99.3% (TOP2A; DNA relaxation; 7.8 µM, replicate 2).
With `CCC(CC)(NCCc1ccc(C(F)(F)F)c(Cl)c1)c1cccc(NC2=CC(=O)N(C3CCC(=O)NC3=O)C2=O)c1` (centres unmarked) the Dmax was 74% (ZBTB11/CRBN (Homo sapiens, UniProt O95625+Q96SW2); protein degradation, degrader, HiBiT luminescence; MOLT-4).
`CC(=O)Oc1ccc([N+](=O)[O-])cc1` gave a Km of 1920 ± 311 µM (Methylesterase 9 (MES9, Arabidopsis thaliana, UniProt O23171); substrate).
`Nc1ncnc2c1ncn2[C@@H]1O[C@H](COP(=O)(O)CP(=O)(O)OP(=O)(O)O)[C@@H](O)[C@H]1O` has a specific binding of 5630 CCPM and 4160 CCPM (P2X purinoceptor 1 (P2RX1, Homo sapiens, UniProt P51575, R139A); saturation binding; HEK293; 130 nM).
`C=CC(=O)N1CCC(COCC(=O)N2CCN(c3nc(-c4cnc(N)nc4C(F)F)nc(N4CCOC[C@@H]4C)n3)CC2)CC1` has a remaining binding of 97% (IRAK3 (Homo sapiens, UniProt Q9Y616); KINOMEscan; 1 µM).
The H2O2 concentration of `CC(C)OCCn1c(=S)[nH]c(=O)c2[nH]ccc21` is reported as -1.24 µM (Myeloperoxidase (MPO, Homo sapiens, UniProt P05164); H2O2 consumption, inhibitor, H2O2 electrode; 0.226 µM, 0.1 s).
Under “thermal stability ratio”, `O=C(COP(=O)(O)O)[C@@H](O)[C@H](O)[C@H](O)COP(=O)(O)O` is recorded as 0.824 and 0.625 and 0.529 (Heterogeneous nuclear ribonucleoprotein U-like protein 2 (Homo sapiens, UniProt Q1KMD3); thermal proteome profiling, measured: HNRNPUL2; HepG2 cell lysate; concentration not given, 57 over 37 °C; baseline: compound over control).
For `O=c1nc(SCc2cc(F)cc(C(F)(F)F)c2)nc(SCc2ccc3nc(Cl)ccc3c2)[nH]1`, the relaxed DNA was 99.6% (TOP2A; DNA relaxation; 15.6 µM, replicate 1).
The -TΔS of `Nc1nc2c(ncn2[C@@H]2O[C@@H]3COP(=O)(O)O[C@H]4[C@@H](O)[C@H](n5cnc6c(=O)[nH]c(N)nc65)O[C@@H]4COP(=O)(O)O[C@H]3[C@H]2O)c(=O)[nH]1` is reported as -6.7 kcal/mol (Cell cycle histidine kinase CckA, DHp-CA domains (Caulobacter vibrioides, UniProt Q9X688); binding, ITC; 12 °C, added: ADP 5 mM).
The koff of `O=c1ccn([C@@H]2O[C@H](COP(=O)(O)OP(=O)(O)O)[C@@H](O)[C@H]2O)c(=O)[nH]1` is reported as 6.8 ± 0.4 s⁻¹ (ABO (Homo sapiens, UniProt P16442, G268A/L266G); methyl-TROSY NMR titration; apo enzyme).
`O=C(CCCc1ccccc1)C(=O)NCCc1ccc(Oc2ccc(C(F)(F)F)cn2)cc1` — result for “probe-enriched protein abundance”: 265000 a.u. and 214000 a.u. and 276000 a.u. (PREP; inhibitor, FP-biotin chemoproteomics; HepG2; concentration not given; baseline: DMSO, lower = stronger inhibition).
`CCCCC[C@H](O)/C=C/[C@H]1[C@H](O)CC(=O)[C@@H]1C/C=C\CCCC(=O)O` has an Emax of 94.6 ± 7.45% (PTGER1 (Homo sapiens, UniProt P34995, F334L); IP1 accumulation, agonist; AD293; 1 h; baseline: wild type receptor).
The Kd of `O=C(O)CC1Oc2ccccc2NC1=O` (centres unmarked) is reported as greater than 1000 µM (Ubiquitin carboxyl-terminal hydrolase 39 ZnF-UBD domain).
`N#Cc1ccc2[nH]cc(CCCCN3CCN(c4ccc5oc(C(N)=O)cc5c4)CC3)c2c1` gave a Hill coefficient of 1.44 ± 0.28 (SLC6A4 (Homo sapiens, UniProt P31645, P561G); [3H]5-HT uptake, inhibitor; COS-7).
The inhibition of `CC[C@@H]1[C@H](F)C(=O)N[C@@H]1COc1nccc2cc(C(N)=O)c(OC)cc12` is reported as 31.8% (STK38 (Homo sapiens, UniProt Q15208); ATP-site probe binding, ActivX profiling; THP-1 cell lysate; 0.2 mM, Lys2 site).
For `c1coc(-c2n[nH]cc2-c2ccnc3ccccc23)c1`, “log2 fold change” read -0.09 (Negative regulator of the PHO system (PHO85, Candida albicans, UniProt Q9HGY5); kinase binding, MIB/MS competition; Candida albicans lysate; 10 µM; baseline: DMSO, negative = stronger binding).
`CC(=C/C(=O)O)/C=C/C=C(\C)C1C=C2C(C)(C)CCCC2(C)O1` (centres unmarked) — result for “Pearson correlation coefficient”: 0.59 (Rhodopsin (RHO, Homo sapiens, UniProt P08100, E181K); ER retention, immunostaining co-localization, measured: opsin with calnexin; COS-7 transfected E181K; 5.00 µM).
`Cc1nn(CCc2ccccc2)c2ncc(C(=O)NCc3ccncc3)c(Cl)c12` — result for “protein adduct formation”: 7% (PREP; intact protein MS; 50 µM, 4 h, 37 °C).
The Hill coefficient of `CN(C)CCCN1c2ccccc2CCc2ccccc21` is reported as 1 (SLC6A4 (Homo sapiens, UniProt P31645); binding, antagonist, radioligand binding).
With `COc1ccc(C=C2SC(=O)N(C(C)C(=O)O)C2=O)cc1` (centres unmarked) the Kd was greater than 1000 µM (Ubiquitin carboxyl-terminal hydrolase 39 ZnF-UBD domain).
`N#CSCCCCOc1ccc2c(-c3ccccc3)cc(=O)oc2c1` has a selectivity ratio of greater than 427 (CA12 (Homo sapiens, UniProt O43570); stopped-flow CO2 hydration; baseline: Ki CA II over Ki CA XII).
`NC(N)=NCCC[C@H](N)C(=O)Nc1ccc2ccccc2c1` has a Km of 5 µM (rat neuron-specific aminopeptidase; substrate).
Under “normalised MST signal”, `NCCS(=O)(=O)O` is recorded as 0.0382 (SLC6A6 (Homo sapiens, UniProt P31641, S402A); binding, microscale thermophoresis; 122 nM, room temperature, added: 50 nM labelled protein; higher = more binding).
For `OC[C@H]1OC(O)[C@H](O)[C@@H](O)[C@@H]1O` (some centres unmarked), “V∞/Vmax ratio (b)” read 0.36 ± 0.03 (Hexokinase-3 (HK3, Homo sapiens, UniProt P52790, R480W); substrate inhibition; mutant R480W, partial substrate inhibition model, added: ATP 20 mM).
`CC(=O)N[C@H](C(=O)N1C[C@H](O)C[C@H]1C(=O)NCc1ccc(-c2scnc2C)cc1)C(C)(C)SCCCCCCNC(=O)C[C@@H]1N=C(c2ccc(Cl)cc2)c2c(sc(C)c2C)-n2c(C)nnc21` has a ΔH of -18.4 ± 0.1 kcal/mol (Bromodomain-containing protein 3, BD1 (BRD3, Homo sapiens, UniProt Q15059); binding, ITC; 25 °C, compound in cell, protein in syringe).
Under “z-scored log2 fold change”, `O=c1ccn([C@H]2C[C@H](O)[C@@H](COP(=O)(O)O)O2)c(=O)[nH]1` is recorded as 0.306 (binding, equilibrium dialysis LC-MS; 5 µM, thermostabilized A2AR-BRIL construct; baseline: no-protein control, direction not given).
The reaction rate of `Nc1nc2c(ncn2[C@@H]2O[C@H](COP(=O)(O)O)[C@@H](O)[C@H]2O)c(=O)[nH]1` is reported as 0.398 s⁻¹ and 0.544 s⁻¹ and 0.546 s⁻¹ (GUK1 (Homo sapiens, UniProt Q16774, E72A); enzyme activity, NADH-coupled; 1000 µM).
`O=c1ccn([C@@H]2O[C@H](CO)[C@@H](O)[C@H]2O)c(=O)[nH]1`: “z-scored log2 fold change” 0.146 (binding, equilibrium dialysis LC-MS; 5 µM, thermostabilized A2AR-BRIL construct; baseline: no-protein control, direction not given).
The remaining activity of `O=C(O)c1ccc(Nc2ncc3c(n2)-c2ccc(Cl)cc2C(c2c(F)cccc2F)=NC3)cc1` is reported as 88% (human WNK3(h); kinase activity; 1 µM).
`N#Cc1ccc2c(-c3ccncc3)c(-c3ccc(F)cc3)nn2c1` gave a target occupancy of 40 to 70% (NLK (Homo sapiens, UniProt Q9UBE8); inhibitor, NanoBRET; HEK293; 1.0 µM).
With `CCOC(=O)[C@H](CCSC)NC(=O)c1ccc(C2CC2)c(Cc2ccc(F)cc2)n1` the Ki ratio was 6 (CNR2 (Homo sapiens, UniProt P34972); radioligand binding; baseline: CB1 over CB2 (human)).

Some of these lines once more:
`N#Cc1ccc2[nH]cc(CCCCN3CCN(c4ccc5oc(C(N)=O)cc5c4)CC3)c2c1` gave a Hill coefficient of 1.44 ± 0.28 (SLC6A4 (Homo sapiens, UniProt P31645, P561G); [3H]5-HT uptake, inhibitor; COS-7).
The inhibition of `CC[C@@H]1[C@H](F)C(=O)N[C@@H]1COc1nccc2cc(C(N)=O)c(OC)cc12` is reported as 31.8% (STK38 (Homo sapiens, UniProt Q15208); ATP-site probe binding, ActivX profiling; THP-1 cell lysate; 0.2 mM, Lys2 site).
